Results from different studies.
Numbered parts are unrelated; each lists some results of a single study.

Block 1
Target: Calcium/calmodulin-dependent protein kinase type II subunit alpha (CAMK2A, Homo sapiens, UniProt Q9UQM7)
Sequence of UniProt Q9UQM7 (whole entry, looked up): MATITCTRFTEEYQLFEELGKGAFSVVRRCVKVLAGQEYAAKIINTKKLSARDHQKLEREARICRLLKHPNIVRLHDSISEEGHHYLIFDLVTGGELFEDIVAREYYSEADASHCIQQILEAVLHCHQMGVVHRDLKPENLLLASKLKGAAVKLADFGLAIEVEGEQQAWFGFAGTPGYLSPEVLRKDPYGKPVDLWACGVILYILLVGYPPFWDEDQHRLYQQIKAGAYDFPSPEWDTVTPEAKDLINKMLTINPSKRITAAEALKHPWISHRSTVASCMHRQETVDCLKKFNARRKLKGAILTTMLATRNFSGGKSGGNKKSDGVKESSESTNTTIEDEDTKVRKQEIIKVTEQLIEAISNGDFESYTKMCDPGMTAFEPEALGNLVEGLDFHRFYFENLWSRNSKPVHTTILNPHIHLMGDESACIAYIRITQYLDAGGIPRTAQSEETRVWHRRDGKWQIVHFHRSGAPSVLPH
Effect on: enzyme activity
Action: inhibitor
Tested at: 10 µM
Compound	inhibition [%]
COc1cc(C=O)cc(OC)c1OC	-2
Oc1cc(O)cc(/C=C/c2ccc(O)cc2O)c1	87
CCC(C)C(=O)O[C@@H]1[C@@H](OC(C)=O)[C@]2(C)[C@H](C(C)=O)CC[C@@]23O[C@]32CC[C@H]3C[C@@H](O[C@H]4C[C@@H](OC)[C@H](O[C@@H]5O[C@H](C)[C@@H](O)[C@@H](OC)[C@H]5O)[C@@H](C)O4)CC[C@]3(C)[C@@H]12 (stereo partly drawn)	14
CCN1C[C@]2(C)CC[C@H](O)[C@]34C1[C@@H](C[C@H]23)[C@@]1(O)C[C@H](OC)[C@H]2C[C@@H]4[C@@H]1[C@H]2O	-5
CN1[C@@H]2CC(O)C[C@H]1[C@@H]1O[C@@H]12 (stereo partly drawn)	12
CCN(CC)N=O	5

Block 2
Cell line: Huh-7
Tested at: 10 µM
Time: 24 h
Structure (SMILES)	viability [%]
Cc1cccc(C)c1N=C1NCCCS1	91.2
Oc1ccc(Cl)cc1	85.5
COc1cc2c(cc1OC)[C@@]13CCN4CC5=CCO[C@H]6CC(=O)N2[C@H]1[C@H]6[C@H]5C[C@H]43	101
CC(CCc1ccccc1)NC(C)C(O)c1ccc(O)cc1 (stereo not drawn)	99.1
c1ccc2c(c1)sc1ccccc12	100

Block 3
Effect on: AlphaScreen signal
Technique: AlphaScreen counter screen
Medium: His6 peptide without bromodomain
Tested at: 50 µM
Notes: assay interference check
SMILES	inhibition
COc1ccc2c(c[n+](C)c3c4cc5c(cc4ccc23)OCO5)c1OC	2.75%
CCOc1ccc(NC=C2C(=O)NC(=O)N(c3ccccc3)C2=O)cc1	6.4%
Cc1cccc(N2C(=O)NC(=O)C(=CNc3ccc4c(c3)OCO4)C2=O)c1	11.8%
N#CC(C#N)=Cc1ccc(O)c(O)c1	29.8%
Cc1cccc(NC=C2C(=O)NC(=O)N(c3ccc(F)cc3)C2=O)c1	4.25%
CN1C(=O)C(=CNc2ccc(Cl)cc2)C(=O)NC1=S	10.1%
CCN1C(=O)NC(=O)C(=CNc2ccc(Cl)c(C(=O)O)c2)C1=O	7.4%

Block 4
Target: Muscarinic acetylcholine receptor M3 (CHRM3, Homo sapiens, UniProt P20309)
Sequence of UniProt P20309 (whole entry, looked up): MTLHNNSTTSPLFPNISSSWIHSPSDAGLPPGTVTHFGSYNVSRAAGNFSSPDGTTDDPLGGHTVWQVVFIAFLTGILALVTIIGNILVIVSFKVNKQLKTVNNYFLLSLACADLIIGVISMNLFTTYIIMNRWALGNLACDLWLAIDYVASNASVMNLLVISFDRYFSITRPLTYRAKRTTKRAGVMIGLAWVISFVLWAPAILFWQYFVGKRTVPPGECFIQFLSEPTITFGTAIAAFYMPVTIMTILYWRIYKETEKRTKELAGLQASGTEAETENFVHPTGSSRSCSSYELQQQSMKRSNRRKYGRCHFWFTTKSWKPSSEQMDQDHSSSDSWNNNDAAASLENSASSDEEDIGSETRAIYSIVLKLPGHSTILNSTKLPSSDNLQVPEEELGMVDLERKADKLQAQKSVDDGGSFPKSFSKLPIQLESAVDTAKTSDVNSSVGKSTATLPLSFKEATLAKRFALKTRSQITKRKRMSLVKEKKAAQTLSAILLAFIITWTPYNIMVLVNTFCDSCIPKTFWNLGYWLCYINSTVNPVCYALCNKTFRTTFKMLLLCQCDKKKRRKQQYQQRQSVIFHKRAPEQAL
Effect on: ligand displacement
Tested at: 10 µM
SMILES	inhibition
Cc1cc(Nc2nccc(C)n2)cc(-c2cnc([C@@]3(O)CC[C@H](C(=O)O)C(C)(C)C3)s2)c1	17.4%
CN(C)c1ncnc(-c2ccc3nc(Nc4cc(CN5CCN(C(=O)CC(F)(F)F)CC5)ccn4)[nH]c3c2)c1Cl	23.9%
CN(C)C(=O)c1sc2nc(N3CCC(S(C)(=O)=O)CC3)cc(C(F)(F)F)c2c1N	7.05%
C[C@H](c1ccnc(Nc2nc3ccc(-c4cc(N(C)C)ncn4)cc3[nH]2)c1)N1CCN(C(=O)CC(F)(F)F)CC1	-8.4%
N#CC1(c2ccccn2)CCN(Cc2cc(C(=O)N3CCCC3)c(=O)n3ccccc23)CC1	-12.9%
CN1CCN(c2ccnc(NCCc3ccccc3)n2)CC1	-3.28%
NC(=O)c1ccc2nc(-c3ccc(C4(N)CCC4)cc3)c(-c3ccccc3)n2n1	20.1%
Cn1cc(Cl)c2c(Oc3c(F)cc(Nc4cc(Cl)nc(N)n4)cc3F)ccnc21	-4.88%
Nc1cnc(N2CCc3cc(S(=O)(=O)Nc4c(F)cc(Cl)cc4F)cc(N4CCCC4=O)c32)nc1	-18%
CNC(=N)NCCC[C@H](NC(=O)[C@H](CC(C)C)NC(=O)NNC(=O)[C@H](Cc1ccccc1)NC(=O)[C@H](CO)NC(=O)[C@H](CC(N)=O)NC(=O)[C@@H](Cc1ccncc1)NC(=O)[C@H](N)Cc1ccc(O)cc1)C(=O)N[C@@H](Cc1ccccc1)C(N)=O	10.6%
Nc1nc(NCc2ccccc2)nc(-c2cccc(CO)c2)n1	21.6%
CC1=C(C#N)C(c2ccc3[nH]nc(C)c3c2)C(C#N)=C(C)N1	-1.54%
CN(C)CC#Cc1ccc(OCCCc2sc(N3CCc4cccc(C(=O)Nc5nc6ccccc6s5)c4C3)nc2C(=O)O)c(F)c1	-10.7%
Cc1noc([C@H]2C[C@@H](c3ccc(C(F)(F)F)cc3)CN(C(=O)N3CCS(=O)(=O)C3)C2)n1	-1.45%
Cn1nc(C(=O)NCc2ccc(C(=O)O)cc2)cc1-c1ccc2[nH]ccc2c1	-0.66%
CN1CCN(c2cnc3c(C4CCN(C(=O)c5ccc(OC(F)(F)F)cc5N)CC4)ncnc3c2)CC1	27.1%
O=C(NS(=O)(=O)c1ccc(NCC2CCOCC2)c([N+](=O)[O-])c1)c1ccc(N2CCN(Cc3ccc(C(F)(F)F)cc3-c3ccc(Cl)cc3)CC2)cc1Oc1cnc2[nH]ccc2c1	12.6%
CS(=O)(=O)N1CCCC(NC(=O)[C@H](CCC2CCCCC2)NC(=O)c2ccc(CNC(=O)c3cnc4ccccn34)cc2)C1 (stereo partly drawn)	20.6%
C[C@@H]1CN(c2cc(-c3n[nH]c4ccc(OC5(C)CC5)cc34)ncn2)C[C@H](C)O1	7.93%
CC(=O)Nc1ncc(CN2CCC[C@H](Cc3cc(C)nc(C)c3)C2)s1	8.4%
CO[C@H]1CC[C@H](CNc2ccc(S(=O)(=O)NC(=O)c3ccc(N4CCN(CC5=C(c6ccc(Cl)cc6)CC(C)(C)CC5)CC4)cc3Oc3cnc4[nH]ccc4c3)cc2[N+](=O)[O-])CC1	3.65%
CC(=O)N1CCC(c2ccc(C(=O)NC3=NCCN3)cc2C(F)(F)F)CC1	-10.9%
O=C(Nc1ccc(Oc2ccc(F)cc2)cc1)N1CCc2ncccc2[C@H]1c1ccc(F)cc1	-3.47%

Block 5
Target: DNA polymerase theta, ATPase domain (POLQ, Homo sapiens, UniProt O75417)
Sequence of UniProt O75417 (whole entry, unmodified, looked up): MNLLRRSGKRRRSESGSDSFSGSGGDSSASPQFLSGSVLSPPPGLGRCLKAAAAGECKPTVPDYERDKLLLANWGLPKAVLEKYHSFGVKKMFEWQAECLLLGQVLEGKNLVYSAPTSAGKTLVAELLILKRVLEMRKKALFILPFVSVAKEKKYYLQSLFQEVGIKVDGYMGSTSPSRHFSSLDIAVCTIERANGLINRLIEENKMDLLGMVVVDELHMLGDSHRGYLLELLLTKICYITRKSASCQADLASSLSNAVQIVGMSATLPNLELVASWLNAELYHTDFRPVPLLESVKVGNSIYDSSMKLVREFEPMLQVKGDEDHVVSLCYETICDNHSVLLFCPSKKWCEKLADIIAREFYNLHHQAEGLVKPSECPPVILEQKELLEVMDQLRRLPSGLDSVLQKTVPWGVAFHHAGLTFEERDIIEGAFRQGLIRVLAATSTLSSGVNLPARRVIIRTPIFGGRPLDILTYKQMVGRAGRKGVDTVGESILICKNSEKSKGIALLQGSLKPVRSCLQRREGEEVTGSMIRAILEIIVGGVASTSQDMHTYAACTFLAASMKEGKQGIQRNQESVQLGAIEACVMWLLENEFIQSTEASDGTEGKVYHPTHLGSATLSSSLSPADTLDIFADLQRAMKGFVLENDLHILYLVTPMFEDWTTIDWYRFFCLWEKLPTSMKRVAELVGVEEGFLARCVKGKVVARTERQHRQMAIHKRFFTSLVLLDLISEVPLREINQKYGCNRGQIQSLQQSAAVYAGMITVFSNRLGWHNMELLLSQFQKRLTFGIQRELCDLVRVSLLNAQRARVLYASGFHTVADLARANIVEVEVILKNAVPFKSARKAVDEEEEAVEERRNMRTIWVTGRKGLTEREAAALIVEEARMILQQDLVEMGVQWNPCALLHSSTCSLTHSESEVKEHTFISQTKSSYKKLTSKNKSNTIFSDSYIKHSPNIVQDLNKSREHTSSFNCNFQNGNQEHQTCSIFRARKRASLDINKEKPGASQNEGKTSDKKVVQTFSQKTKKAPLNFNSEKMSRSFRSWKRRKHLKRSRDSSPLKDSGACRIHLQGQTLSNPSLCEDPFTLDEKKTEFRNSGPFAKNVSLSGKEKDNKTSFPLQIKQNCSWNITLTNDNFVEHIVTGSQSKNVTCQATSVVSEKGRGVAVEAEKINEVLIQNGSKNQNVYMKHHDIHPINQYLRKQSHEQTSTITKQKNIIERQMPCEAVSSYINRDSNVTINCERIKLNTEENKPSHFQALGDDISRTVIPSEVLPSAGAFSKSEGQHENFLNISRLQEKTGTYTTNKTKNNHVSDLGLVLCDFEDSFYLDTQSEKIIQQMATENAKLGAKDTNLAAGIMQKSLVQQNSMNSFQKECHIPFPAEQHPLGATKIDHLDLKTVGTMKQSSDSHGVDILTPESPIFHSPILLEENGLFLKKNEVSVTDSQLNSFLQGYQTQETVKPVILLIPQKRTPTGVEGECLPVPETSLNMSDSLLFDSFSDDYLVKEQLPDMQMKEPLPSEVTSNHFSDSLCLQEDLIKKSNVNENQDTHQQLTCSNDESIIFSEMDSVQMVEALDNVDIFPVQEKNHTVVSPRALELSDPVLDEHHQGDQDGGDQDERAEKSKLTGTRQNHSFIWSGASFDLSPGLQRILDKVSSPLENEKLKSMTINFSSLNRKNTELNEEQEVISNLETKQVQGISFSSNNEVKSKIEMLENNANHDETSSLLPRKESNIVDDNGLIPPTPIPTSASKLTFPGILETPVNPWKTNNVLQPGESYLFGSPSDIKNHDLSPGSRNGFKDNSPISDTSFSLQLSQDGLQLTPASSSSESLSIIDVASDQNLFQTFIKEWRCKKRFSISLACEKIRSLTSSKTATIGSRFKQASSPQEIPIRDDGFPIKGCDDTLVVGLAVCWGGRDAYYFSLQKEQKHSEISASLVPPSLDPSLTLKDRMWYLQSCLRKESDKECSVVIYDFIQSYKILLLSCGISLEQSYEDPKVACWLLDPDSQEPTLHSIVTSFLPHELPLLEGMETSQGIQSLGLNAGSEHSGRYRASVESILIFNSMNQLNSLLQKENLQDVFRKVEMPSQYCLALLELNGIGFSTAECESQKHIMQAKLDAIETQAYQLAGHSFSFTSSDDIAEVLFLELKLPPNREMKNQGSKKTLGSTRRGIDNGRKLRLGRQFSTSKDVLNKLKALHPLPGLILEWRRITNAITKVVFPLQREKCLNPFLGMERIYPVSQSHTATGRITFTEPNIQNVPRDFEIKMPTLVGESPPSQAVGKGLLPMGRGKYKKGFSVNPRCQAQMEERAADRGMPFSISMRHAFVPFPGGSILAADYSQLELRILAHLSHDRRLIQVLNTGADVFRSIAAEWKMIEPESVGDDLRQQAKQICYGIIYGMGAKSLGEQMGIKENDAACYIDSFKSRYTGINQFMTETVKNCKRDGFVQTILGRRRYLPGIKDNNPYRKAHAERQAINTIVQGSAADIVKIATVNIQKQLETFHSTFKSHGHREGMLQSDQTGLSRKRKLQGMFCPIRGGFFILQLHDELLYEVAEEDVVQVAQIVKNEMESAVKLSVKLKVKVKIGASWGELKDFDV
Effect on: enzyme activity
Action: inhibitor
Tested at: 77 µM
Baseline: untreated
Structure (SMILES)	remaining activity [%]
C/C(=C\c1csc(C)n1)[C@@H]1C[C@@H]2O[C@@H]2CCC[C@H](C)[C@H](O)[C@@H](C)C(=O)C(C)(C)[C@@H](O)CC(=O)O1	98.4
COc1ccc(N(C(=O)Oc2c(C)cccc2C)c2ccnc(Nc3ccc(N4CCN(C)CC4)cc3)n2)c(OC)c1	101
CC(=O)OCC1=C(C(=O)O)N2C(=O)[C@@H](N)[C@H]2SC1	98.4
C#CCOC(=O)C1=CCCN(C)C1	99
CN1[C@@H]2CC(=O)C[C@H]1[C@H](O)C2	83.9
NC[C@@H](O)c1ccc(O)cc1 (racemic)	102
CCN1C[C@]2(C)CC[C@H](OC)[C@@]34C1[C@]1(OCO[C@@]15C[C@H](OC)[C@H]1C[C@]3(O)[C@@H]5[C@H]1OC)[C@@H](OC(C)=O)[C@H]24	102
